{"data": "Results collected from several papers", "note": "A part holds a random share of what one study measured. Substitutions count along the parent as printed."}
{"data": "Study 1", "target": "ABI1, truncated, D143A, DHFR fusion (Arabidopsis thaliana)", "method": "DHFR PCA, deep sequencing", "sample": "yeast", "notes": "methotrexate growth selection, single substitutions", "added": "(+)-ABA 4.8 µM", "relative to": "wild-type fitted maximum", "direction": "higher = stronger binding", "parent": "PYL1, truncated, DHFR fusion (Arabidopsis thaliana); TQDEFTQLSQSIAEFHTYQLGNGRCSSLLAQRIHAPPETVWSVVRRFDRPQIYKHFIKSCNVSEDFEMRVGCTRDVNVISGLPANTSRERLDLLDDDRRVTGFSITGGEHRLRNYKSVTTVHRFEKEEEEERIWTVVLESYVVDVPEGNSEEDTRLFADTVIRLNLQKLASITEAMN"}
{"Variant": "I105P", "relative binding score": "-31.7%"}
{"Variant": "W134V", "relative binding score": "74.3%"}
{"Variant": "S27D", "relative binding score": "47.6%"}
{"Variant": "S104A", "relative binding score": "1.12%"}
{"Variant": "D92T", "relative binding score": "29.9%"}
{"Variant": "F15D", "relative binding score": "-0.563%"}
{"Variant": "R45I", "relative binding score": "-6.65%"}
{"Variant": "K54F", "relative binding score": "-1.25%"}
{"data": "Study 2", "target": "Histone acetyltransferase KAT6A, winged helix 2, GST fusion (KAT6A, Homo sapiens, UniProt Q92794, residues 85-181)", "method": "protein binding microarray", "form": "double-stranded DNA, one strand shown", "sample": "in vitro", "concentration": "not given", "notes": "8-mer, flanks averaged, mean of 2 arrays, mostly near background", "relative to": "not given", "direction": "higher = stronger binding", "Construct (chain)": "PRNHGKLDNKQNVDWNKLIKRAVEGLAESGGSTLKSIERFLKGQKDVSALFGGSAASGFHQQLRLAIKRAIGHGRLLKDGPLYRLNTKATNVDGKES"}
{"Oligonucleotide": "AGTAATAA", "E-score": -0.0217}
{"Oligonucleotide": "CACCGGAA", "E-score": 0.13}
{"Oligonucleotide": "ATTGGTCG", "E-score": 0.0935}
{"Oligonucleotide": "GAACTCAC", "E-score": 0.0945}
{"Oligonucleotide": "CATCCCCA", "E-score": -0.0788}
{"Oligonucleotide": "GATGCCTA", "E-score": -0.0433}
{"Oligonucleotide": "ATCTCCCG", "E-score": 0.0346}
{"Oligonucleotide": "AACCCCGA", "E-score": -0.123}
{"data": "Study 3", "target": "Centromere-binding protein 1, full length, N-terminal tag (CBF1, Saccharomyces cerevisiae, UniProt P17106, residues 1-351)", "method": "protein-binding microarray", "form": "double-stranded DNA, one strand shown", "sample": "in vitro", "concentration": "0.8 µM", "notes": "whole 60-bp probe, no competitor", "direction": "higher = stronger binding", "chain of UniProt P17106 (whole entry, looked up)": "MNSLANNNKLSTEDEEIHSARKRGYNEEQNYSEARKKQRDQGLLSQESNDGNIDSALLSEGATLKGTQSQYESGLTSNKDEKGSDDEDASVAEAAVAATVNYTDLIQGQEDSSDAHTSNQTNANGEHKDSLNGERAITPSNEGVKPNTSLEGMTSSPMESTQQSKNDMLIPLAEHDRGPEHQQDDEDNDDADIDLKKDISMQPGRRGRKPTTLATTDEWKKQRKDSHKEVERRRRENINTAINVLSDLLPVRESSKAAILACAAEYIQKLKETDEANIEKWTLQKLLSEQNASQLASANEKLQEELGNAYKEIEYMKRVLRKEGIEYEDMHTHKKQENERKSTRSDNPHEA"}
{"Oligonucleotide": "GAAAGCTACCAATAAAACGTGATAGATACTAACTAGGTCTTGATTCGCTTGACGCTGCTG", "fluorescence intensity [a.u.]": 1230}
{"Oligonucleotide": "GAACTTGACAATGTTCTCATGATAATGTAAGTATAGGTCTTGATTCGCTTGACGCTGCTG", "fluorescence intensity [a.u.]": 546}
{"Oligonucleotide": "CTATCAGTTCTCGAGCACGCAGAGAAAAGTAAATTCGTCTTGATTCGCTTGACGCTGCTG", "fluorescence intensity [a.u.]": 534}
{"Oligonucleotide": "GAATGCGGAAGCTATCACGCGATAACTAGGTACTAGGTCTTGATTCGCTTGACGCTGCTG", "fluorescence intensity [a.u.]": 1040}
{"Oligonucleotide": "GAACCTAAGTCAGGGCACGCTTGCTTTGTTTCTTAGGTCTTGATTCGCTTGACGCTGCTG", "fluorescence intensity [a.u.]": 500}
{"Oligonucleotide": "TGTACGAAGCTATTTTACCTGATTATAGTAGTTAGGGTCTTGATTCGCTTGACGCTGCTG", "fluorescence intensity [a.u.]": 519}
{"Oligonucleotide": "GAACAGGGACTTCTGCCCACCACGTAGAAACGCTAGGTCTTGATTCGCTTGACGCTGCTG", "fluorescence intensity [a.u.]": 533}
{"Oligonucleotide": "CTATCGTAAAGGTGCCACGGGGATCCCAATGATTTCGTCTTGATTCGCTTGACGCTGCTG", "fluorescence intensity [a.u.]": 561}
{"data": "Mixed results", "parent": "viral docking peptide; KGVKRKLFAEDSS; partner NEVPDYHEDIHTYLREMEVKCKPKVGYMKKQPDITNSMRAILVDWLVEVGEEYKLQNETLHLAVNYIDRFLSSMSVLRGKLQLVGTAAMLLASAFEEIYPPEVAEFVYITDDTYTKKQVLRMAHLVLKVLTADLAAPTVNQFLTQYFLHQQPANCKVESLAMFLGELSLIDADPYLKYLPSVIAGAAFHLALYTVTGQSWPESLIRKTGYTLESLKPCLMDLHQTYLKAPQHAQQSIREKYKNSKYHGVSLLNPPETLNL"}
{"Variant": "KGLKRKLFAEDSS [V3L]", "target": "CCNA2, cyclin fold, Cln2 fusion (human)", "assay": "yeast growth competition, sequencing", "test system": "yeast", "setting": "strong parent motif", "scale": "relative to: not given, higher = stronger binding", "quantity": "normalised enrichment score", "result": 3.07}
{"note": "Excerpt of the above (study 3):"}
{"Oligonucleotide": "GAATGCGGAAGCTATCACGCGATAACTAGGTACTAGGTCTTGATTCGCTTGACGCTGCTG", "fluorescence intensity [a.u.]": 1040}
{"Oligonucleotide": "GAACCTAAGTCAGGGCACGCTTGCTTTGTTTCTTAGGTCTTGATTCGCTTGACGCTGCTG", "fluorescence intensity [a.u.]": 500}
